Experimental data pooled from the literature.
A part holds a random share of what one study measured. Changes are numbered by the printed parent chain.

Series 1 — partner: ORF66; method: pull-down; reference: wild-type ORF34; reading: higher = more binding; measurement: relative binding
ORF34 Y215A (Kaposi's sarcoma-associated herpesvirus): 0.167
ORF34 G182A (Kaposi's sarcoma-associated herpesvirus): 0.359
ORF34 C175A (Kaposi's sarcoma-associated herpesvirus): 0.039
ORF34 E41A/T42A (Kaposi's sarcoma-associated herpesvirus): 1.03
ORF34 V50A (Kaposi's sarcoma-associated herpesvirus): 1.11
ORF34 W160A (Kaposi's sarcoma-associated herpesvirus): 0.289

Series 2 — substrate: N[C@@H](CCCNO)C(=O)O; method: steady-state kinetics; pH: 8; temperature: 25 °C; added: heme; measurement: kcat
B1: enzyme K184A (Streptomyces parvus, UniProt A0A7K3RVR3); chain MYVPEQYRPRDASWTLELIRSNPLALLVTNGPQHPWATHVPVLFAEEPDGPEGPDGLDATGDDLVGRRLLGHLNLMNPHWEALAGAGHALLVFQGPGSYVSPTVYETAPAAPTWDFTSVHVHGALRLIDDPDDLRKIVQATVRAYEREVGTDWDMSESLEYFERLLPGVRGFEIKIESVDSMFALSQEQLPETVTKVIDSFRRSDGGRRQELATMIERAASD
B2: enzyme Y7F (Streptomyces parvus, UniProt A0A7K3RVR3); chain MYVPEQFRPRDASWTLELIRSNPLALLVTNGPQHPWATHVPVLFAEEPDGPEGPDGLDATGDDLVGRRLLGHLNLMNPHWEALAGAGHALLVFQGPGSYVSPTVYETAPAAPTWDFTSVHVHGALRLIDDPDDLRKIVQATVRAYEREVGTDWDMSESLEYFERLLPGVRGFEIKIESVDSMFKLSQEQLPETVTKVIDSFRRSDGGRRQELATMIERAASD
B3: enzyme T113A (Streptomyces parvus, UniProt A0A7K3RVR3); chain MYVPEQYRPRDASWTLELIRSNPLALLVTNGPQHPWATHVPVLFAEEPDGPEGPDGLDATGDDLVGRRLLGHLNLMNPHWEALAGAGHALLVFQGPGSYVSPTVYETAPAAPAWDFTSVHVHGALRLIDDPDDLRKIVQATVRAYEREVGTDWDMSESLEYFERLLPGVRGFEIKIESVDSMFKLSQEQLPETVTKVIDSFRRSDGGRRQELATMIERAASD
B1 (enzyme K184A): 0.0497 s⁻¹
B2 (enzyme Y7F): 2.47 s⁻¹
B3 (enzyme T113A): 0.101 s⁻¹

Mixed results — BFA1: BFA1 (Saccharomyces cerevisiae)
P1: yEGFP-Tem1 (Saccharomyces cerevisiae); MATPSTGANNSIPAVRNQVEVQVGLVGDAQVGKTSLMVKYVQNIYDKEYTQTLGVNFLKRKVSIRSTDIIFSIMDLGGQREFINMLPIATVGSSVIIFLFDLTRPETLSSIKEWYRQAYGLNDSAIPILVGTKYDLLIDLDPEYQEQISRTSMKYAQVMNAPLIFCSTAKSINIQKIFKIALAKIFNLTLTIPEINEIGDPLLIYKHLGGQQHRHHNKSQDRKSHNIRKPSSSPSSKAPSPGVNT; partner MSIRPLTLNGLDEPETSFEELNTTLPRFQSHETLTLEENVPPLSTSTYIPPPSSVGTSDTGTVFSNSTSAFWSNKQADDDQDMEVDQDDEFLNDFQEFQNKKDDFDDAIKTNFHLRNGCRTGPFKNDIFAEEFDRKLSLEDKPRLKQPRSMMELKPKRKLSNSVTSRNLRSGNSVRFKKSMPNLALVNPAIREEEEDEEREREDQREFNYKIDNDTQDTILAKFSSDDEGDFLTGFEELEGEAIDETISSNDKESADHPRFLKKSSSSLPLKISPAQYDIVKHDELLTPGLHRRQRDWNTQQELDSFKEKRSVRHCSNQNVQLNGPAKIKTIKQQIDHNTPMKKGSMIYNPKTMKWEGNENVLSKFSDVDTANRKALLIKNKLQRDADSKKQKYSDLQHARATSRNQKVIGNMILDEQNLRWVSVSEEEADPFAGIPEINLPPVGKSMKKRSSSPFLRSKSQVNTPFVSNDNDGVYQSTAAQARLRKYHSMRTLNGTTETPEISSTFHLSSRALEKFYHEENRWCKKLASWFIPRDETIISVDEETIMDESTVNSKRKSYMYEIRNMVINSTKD
B4: USP7 catalytic domain 207-560 (Homo sapiens, UniProt Q93009); chain SKKHTGYVGLKNQGATCYMNSLLQTLFFTNQLRKAVYMMPTEGDDSSKSVPLALQRVFYELQHSDKPVGTKKLTKSFGWETLDSFMQHDVQELCRVLLDNVENKMKGTCVEGTIPKLFRGKMVSYIQCKEVDYRSDRREDYYDIQLSIKGKKNIFESFVDYVAVEQLDGDNKYDAGEHGLQEAEKGVKFLTLPPVLHLQLMRFMYDPQTDQNIKINDRFEFPEQLPLDEFLQKTDPKDPANYILHAVLVHSGDNHGGHYVVYLNPKGDGKWCKFDDDVVSRCTKEEAIEHNYGGHDDDLSVRHCTNAYMLVYIRESKLSEVLQAVTDHDIPQQLVERLQEEKRIEAQKRKERQE
P1 Q79L  relative binding (BFA1; co-IP; yeast; in cells; reference: wild-type protein, higher = more binding): 1.6
AAUUUUUUAGGGAAGAUCUGGCCUUCCUACAAGGGAAGGCCAGGGAAUUUUCUUC (ssRNA (HIV-1); stem-loop)  binding (SHFL 1-291 S256A (Homo sapiens, UniProt Q9NUL5); BLI; folded RNA): binds
B4 (USP7 catalytic domain 207-560)  Kd (ubiquitin (UniProt P0CG48); NMR; read off a plot): 160 µM
P1 T34A  relative binding (BFA1; co-IP; yeast; in cells; reference: wild-type protein, higher = more binding): 0.01

Excerpt of the above (series 1):
ORF34 Y215A (Kaposi's sarcoma-associated herpesvirus): 0.167
ORF34 C175A (Kaposi's sarcoma-associated herpesvirus): 0.039
